Experimental data collected from several papers.
Each line is one published result; not all experiments were run side by side. “And” joins repeats or separate records; there may be more than shown. Values after ≈ are worked out from the molar mass of the structure shown.

OC(Cn1cncn1)(Cn1cc(-[c-]2cccc2)nn1)c1ccc(F)cc1F.[Cl-].[Co+3].c1cc[cH-]c1 (racemic)
motility inhibition (Trichuris muris; Worminator; adult males and females; 100 µM, day 3): 15%

Nc1nc(-c2ccccc2)nc2[nH]nc(Nc3ccc([N+](=O)[O-])cc3)c12
IC50 (Human rhinovirus 8; cytopathic effect, inhibitor; HeLa): 5.47 µM

CC(=O)O[C@@H]1[C@@H](OC(C)=O)[C@H](Sc2sc(C(=O)c3ccc(Br)cc3)c(N)c2-c2nc3ccccc3s2)OC[C@H]1OC(C)=O
viral titre reduction (human alphaherpesvirus 1; plaque reduction; non-toxic concentration): 80%

Nc1nc(-c2ccccc2)nc2[nH]nc(Nc3cc(F)ccc3F)c12
IC50 (Human rhinovirus 8; cytopathic effect, inhibitor; HeLa): 107 µM

C=C[C@]1(C)C[C@@H](OC(=O)CSc2ccc(NC(=O)c3ccco3)cc2)[C@]2(C)[C@H](C)CC[C@]3(CCC(=O)[C@H]32)[C@@H](C)[C@@H]1O
air sac lesion score (Mycoplasma gallisepticum; infected chickens; intramuscular, 20 mg/kg daily x3, scale 0 to 4; direction not given): 2 and 1 and 3

C=CC(=O)Nc1cccc(Cn2ncc3cnc(Nc4cnn(CCOC)c4)nc32)c1
binding (human YES; KINOMEscan; 100 nM): 43%

CCc1nc2ccc(Cl)cn2c1C(=O)NCc1ccc2oc(-c3ccc(OC(F)(F)F)cc3)nc2c1
MIC90 (Mycobacteroides abscessus; RFP fluorescence; ATCC 19977, RFP reporter): > 100 µM

Cc1ccc(Nc2n[nH]c3nc(-c4ccccc4)nc(N)c23)cc1
IC50 (Human rhinovirus 8; cytopathic effect, inhibitor; HeLa): 7.02 µM

CC1(C)[C@H](NC(=O)/C(=N\OCc2c(Cl)cccc2Cl)c2csc(N)n2)C(=O)N1OS(=O)(=O)O
MIC (Enterobacter cloacae; agar dilution; CDC 1000654): > 64 µg/mL

Nc1nc(-c2ccccc2)nc2[nH]nc(Nc3ccc(F)cc3F)c12
IC50 (Human rhinovirus 8; cytopathic effect, inhibitor; HeLa): 17.7 µM

Nc1ncnc2c1ncn2[C@@H]1O[C@H](CSCc2cccc(C(=O)O)c2)[C@@H](O)[C@H]1O
EC50 (murine hepatitis virus; viral replication; A59; 16 h): > 200 µM

Nc1nc(-c2ccccc2)nc2[nH]nc(Nc3cccc(F)c3)c12
IC50 (Human rhinovirus 8; cytopathic effect, inhibitor; HeLa): 14.4 µM

CC[C@H](C)[C@@H]1NC(=O)[C@@H]([C@@H](C)O)NC(=O)CNC(=O)[C@H](CC(=O)O)NC(=O)CNC(=O)[C@H](CC(=O)O)NC(=O)CNC(=O)[C@H]2CCCCN2C(=O)[C@@H](NC(=O)[C@H](CC(=O)O)NC(=O)/C=C/CCCCCCCCCC(C)C)CNC(=O)[C@@H]2CCCN2C1=O
MIC (Enterococcus; broth microdilution; VRE 155, Mueller-Hinton broth, Mg2+ 10 mg/L; 16 h, added: Ca2+ 5 mM): 4 µg/mL (≈ 3.21 µM)

CCc1nc2cc(OC(F)(F)F)ccn2c1C(=O)NCc1ccc2oc(-c3ccc(OC(F)(F)F)cc3)nc2c1
MIC90 (Mycobacteroides abscessus; RFP fluorescence; ATCC 19977, RFP reporter): > 50 µM

CC(C)(C)NCC(SS(=O)(=O)O)c1ccccc1 (stereo not drawn)
liver weight (Schistosoma mansoni; perfusion day 52; infected Swiss Webster mice; 400 mg/kg single dose, dosed day 7 post-infection): 3.4 g and 4.66 g and 5 g and 2.98 g and 4.9 g

CCc1nc2ccc(Br)cn2c1C(=O)NCc1ccc2oc(-c3ccc(OC(F)(F)F)cc3)nc2c1
MIC90 (Mycobacteroides abscessus; RFP fluorescence; ATCC 19977, RFP reporter): > 50 µM

CNCc1ccc2c(c1)C[C@H](CNC(=N)N)[C@H]2NC(=O)C(=O)Nc1ccc(Cl)c(F)c1
IC80 (HIV-1; viral infection, Env pseudovirus neutralization; TZM-bl, CRF01_AE): > 100 µM

C=CCO/N=C(\C(=O)N[C@@H]1C(=O)N(OS(=O)(=O)O)C1(C)C)c1nsc(N)n1
MIC (Enterobacter cloacae; agar dilution; ATCC 43560, susceptible): 0.25 µg/mL (≈ 0.595 µM)

Cc1ncsc1-c1ccc(C(C)NC(=O)C2CC(O)CN2C(=O)C(NC(=O)CCCCCCCCCCN2CCCC(Nc3ncc(Cl)c(Nc4ccccc4S(=O)(=O)C(C)C)n3)C2)C(C)(C)C)cc1 (stereo not drawn)
log2 fold change (22Rv1; RNA-seq, refers to: SH3TC1 mRNA; concentration not given; reference: DMSO): -1.44

Nc1nc(-c2ccc(OC(F)(F)F)cc2)nc2[nH]nc(Nc3ccccc3)c12
IC50 (Human rhinovirus 8; cytopathic effect, inhibitor; HeLa): 1.81 µM

Cc1cccc2c1N(C(=O)n1ccnn1)CC2
germination rate (Arabidopsis thaliana; wild type, seeds; 100 µM, high ambient temperature): 0% and 4.5% and 50% and 65.1% and 16.1% and 7.7%

C=C(NC(=O)c1csc(-c2nc3c(cc2O)-c2nc(cs2)C(=O)NC(C(C)O)C(=O)NC(=C(C)OC)c2nc(cs2)C(=O)NC2c4nc(cs4)C(=O)NC(COC(=O)c4c5c6c(cccc6n4O)COC(=O)C(OC4CC(C)(O)C(N(C)C)C(C)O4)C2OC5)c2nc-3cs2)n1)C(N)=O (stereo not drawn)
ED50 (Enterococcus faecium; -30 vancomycin-intermediate, mice, systemic infection; intravenous, 2 and 8 h post-infection, survival over 7 days): 1.35 mg/kg

Cc1nc2cc(Br)ccn2c1C(=O)NCc1ccc2oc(-c3ccc(Cl)cc3)nc2c1
MIC90 (Mycobacteroides abscessus; RFP fluorescence; ATCC 19977, RFP reporter): > 100 µM

CN(Cc1ccc(C2(C(F)(F)F)CCC2)cc1)Cc1cccc2ccccc12
inhibition zone (Trichophyton rubrum; microbial growth, disc diffusion; ATCC28188; 0.0005 µg/mL, 6 days): 0 mm

FC(F)(F)c1cccc(CNc2nc(NC3CCN(Cc4ccccc4)CC3)c3nc[nH]c3n2)c1
log2 fold change (Cryptococcus neoformans; RNA-seq, refers to: CNAG_03821; wild type; 48 µg/mL, 3 h; reference: untreated wild type): 0.015

Cc1nc2ccc(C(F)(F)F)cn2c1C(=O)NCc1ccc2oc(-c3ccc(Cl)cc3)nc2c1
MIC90 (Mycobacteroides abscessus; RFP fluorescence; ATCC 19977, RFP reporter): > 100 µM

CCOc1c(NC(=O)c2ccc(NC(=O)c3ccc(NC(=O)[C@H](Cc4c[nH]nn4)NC(=O)c4ccc(NC(=O)/C(C)=C/c5ccc(O)cc5)cc4)cc3)c(OCC)c2O)ccc(C(=O)O)c1O
MIC (Enterococcus faecium; broth microdilution; ciprofloxacin-sensitive): 0.25 µg/mL (≈ 0.274 µM)

Nc1nc(-c2ccccc2)nc2[nH]nc(Nc3c(F)cc(F)cc3F)c12
IC50 (Human rhinovirus 8; cytopathic effect, inhibitor; HeLa): 11.5 µM

CC1(C)[C@H](NC(=O)/C(=N\OCCN)c2nsc(N)n2)C(=O)N1OS(=O)(=O)O
MIC (Enterobacter cloacae; agar dilution; ATCC 43560, susceptible): 8 µg/mL (≈ 18.9 µM)

CC1CC2(N=CCS2)C2(O)OC3CC4(C)C(CC3OC2O1)CC1OC12C4C(O)C(=O)C1(C)C(C3=CC(=O)OC3)CCC12O (stereo not drawn)
hatchlings per female (Oncopeltus fasciatus; diet, concentration not given): 120

O=[N+]([O-])c1cc(Br)cc([N+](=O)[O-])c1NS(=O)(=O)c1ccc(Br)cc1
germination rate (Arabidopsis thaliana wild type; 50 µM): ~30%

CCc1ccc(-c2nc(N)c3c(Nc4ccccc4)n[nH]c3n2)cc1
IC50 (Human rhinovirus 8; cytopathic effect, inhibitor; HeLa): 3.18 µM

Cc1c(CN(C)C(=O)/C=C/c2cnc3c(c2)CC(N)C(=O)N3)oc2ccccc12 (stereo not drawn)
MIC (Escherichia coli; broth microdilution; AR-0114): 8 µg/mL (≈ 20.5 µM)

Nc1c(C(=O)c2ccc(Cl)cc2)sc(S)c1-c1nc2ccccc2s1
viral titre reduction (human alphaherpesvirus 1; plaque reduction; non-toxic concentration): 20%

COc1c(NC(=O)c2ccc(NC(=O)c3ccc(NC(=O)[C@H](Cc4c[nH]nn4)NC(=O)c4ccc(NC(=O)/C(C)=C/c5ccc(O)cc5)cc4)cc3)c(OC)c2O)ccc(C(=O)O)c1O
MIC (Salmonella enterica; microbial growth, broth dilution; TYPHIMURIUM): 0.016 µg/mL (≈ 0.0181 µM)

Cc1nc2cc(C(F)(F)F)ccn2c1C(=O)NCc1ccc2oc(-c3ccc(OC(F)(F)F)cc3)nc2c1
MIC90 (Mycobacteroides abscessus; RFP fluorescence; ATCC 19977, RFP reporter): > 50 µM

CC(=O)O[C@@H]1[C@@H](OC(C)=O)[C@H](Sc2sc(C(=O)c3ccc(Cl)cc3)c(N)c2-c2nc3ccccc3s2)OC[C@H]1OC(C)=O
viral titre reduction (human alphaherpesvirus 1; plaque reduction; non-toxic concentration): 10%

COC1CN([C@H]2CC[C@H]([C@@]3(C)Oc4c(Cl)cc(C(=O)NCc5c(SC)cc(C)[nH]c5=O)c(C)c4O3)CC2)C1
log2 fold change (RNA-seq, refers to: NKD2; human, whole blood; dose not given, 24 h; reference: pretreatment baseline): 7.36

COC1C=COC2(C)Oc3c(C)c(O)c4c(c3C2=O)C2=NC3(CCN(CC(C)C)CC3)NC2=C(NC(=O)C(C)=CC=CC(C)C(O)C(C)C(O)C(C)C(OC(=O)Nc2cccnn2)C1C)C4=O (stereo not drawn)
IC90 (Mycobacteroides abscessus; bacterial growth; subsp. abscessus Bamboo): 0.1 µM

A few entries again:
CN(Cc1ccc(C2(C(F)(F)F)CCC2)cc1)Cc1cccc2ccccc12
inhibition zone (Trichophyton rubrum; microbial growth, disc diffusion; ATCC28188; 0.0005 µg/mL, 6 days): 0 mm

CCOc1c(NC(=O)c2ccc(NC(=O)c3ccc(NC(=O)[C@H](Cc4c[nH]nn4)NC(=O)c4ccc(NC(=O)/C(C)=C/c5ccc(O)cc5)cc4)cc3)c(OCC)c2O)ccc(C(=O)O)c1O
MIC (Enterococcus faecium; broth microdilution; ciprofloxacin-sensitive): 0.25 µg/mL (≈ 0.274 µM)

CC(=O)O[C@@H]1[C@@H](OC(C)=O)[C@H](Sc2sc(C(=O)c3ccc(Cl)cc3)c(N)c2-c2nc3ccccc3s2)OC[C@H]1OC(C)=O
viral titre reduction (human alphaherpesvirus 1; plaque reduction; non-toxic concentration): 10%
